Experimental data gathered from unrelated publications.
Compare with care: the assays were run in different laboratories. Values joined by “and” are separate records of one study, mostly repeats; a detail may differ. ± marks the error that the study gave.
UniProt Q9HBH9, sequence (whole entry, looked up): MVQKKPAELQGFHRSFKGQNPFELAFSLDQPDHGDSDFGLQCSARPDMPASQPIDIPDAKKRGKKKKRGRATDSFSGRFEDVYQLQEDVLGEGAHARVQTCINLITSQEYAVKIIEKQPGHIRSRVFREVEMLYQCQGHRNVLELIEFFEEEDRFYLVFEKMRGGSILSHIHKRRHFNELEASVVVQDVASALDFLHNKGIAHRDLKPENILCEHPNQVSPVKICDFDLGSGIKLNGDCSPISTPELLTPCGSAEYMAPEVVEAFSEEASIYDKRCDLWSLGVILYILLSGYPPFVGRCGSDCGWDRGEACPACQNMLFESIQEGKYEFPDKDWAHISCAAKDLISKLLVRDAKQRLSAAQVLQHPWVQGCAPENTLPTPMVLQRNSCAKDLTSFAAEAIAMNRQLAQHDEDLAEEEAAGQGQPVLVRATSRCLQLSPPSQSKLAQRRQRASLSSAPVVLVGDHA
UniProt P46663, sequence (whole entry, looked up): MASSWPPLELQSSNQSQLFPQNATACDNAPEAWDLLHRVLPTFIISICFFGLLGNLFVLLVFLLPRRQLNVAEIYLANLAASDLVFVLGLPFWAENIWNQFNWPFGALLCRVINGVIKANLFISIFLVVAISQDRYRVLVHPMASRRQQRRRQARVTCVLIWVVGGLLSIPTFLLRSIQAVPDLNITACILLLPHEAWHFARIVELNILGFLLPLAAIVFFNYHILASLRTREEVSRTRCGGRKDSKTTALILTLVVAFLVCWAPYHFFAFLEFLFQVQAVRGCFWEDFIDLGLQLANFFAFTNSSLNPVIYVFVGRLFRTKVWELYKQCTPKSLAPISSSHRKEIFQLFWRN
UniProt Q8NEW0, sequence (whole entry, looked up): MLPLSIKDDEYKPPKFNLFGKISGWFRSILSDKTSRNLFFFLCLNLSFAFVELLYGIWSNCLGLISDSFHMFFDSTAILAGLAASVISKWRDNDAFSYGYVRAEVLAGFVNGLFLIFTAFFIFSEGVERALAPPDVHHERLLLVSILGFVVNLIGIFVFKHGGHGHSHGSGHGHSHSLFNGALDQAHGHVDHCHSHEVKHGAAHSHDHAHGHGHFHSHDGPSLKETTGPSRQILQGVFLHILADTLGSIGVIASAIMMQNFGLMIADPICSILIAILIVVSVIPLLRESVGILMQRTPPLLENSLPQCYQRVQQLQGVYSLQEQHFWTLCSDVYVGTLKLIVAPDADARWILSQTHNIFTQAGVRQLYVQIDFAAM

The inhibition of COc1ccc(N2C(=O)N(c3c(C)cccc3Cl)Cc3cnc(Nc4ccc(C5CCN(C)CC5)cc4OC)nc32)nc1 is reported as 4.45% (MAP kinase-interacting serine/threonine-protein kinase 2 (MKNK2, Homo sapiens, UniProt Q9HBH9); kinase activity, inhibitor; 0.5 µM, MNK2).
CC(c1ccccc1)(c1ccc(O)cc1)c1ccc(O)cc1 — result for “late apoptotic cells”: 30.6 ± 11.9% (HepG2 spheroids, dissociated; annexin V-FITC/PI flow cytometry; 10 µM, 96 h).
CO[C@H]1/C=C\C=C(/C)C(=O)NC2=CC(=O)C(NCCN(C)C)=C(C[C@@H](C)C[C@H](OC)[C@H](O)[C@@H](C)/C=C(\C)[C@@H]1OC(N)=O)C2=O has an EC50 of greater than 60 µM (MYBPC3-mutant iPSC cardiomyocytes; cell viability; 24 h).
N[C@@H](CC(=O)N1CCN(C(c2ccc(F)cc2)c2ccc(F)cc2)CC1)C(=O)N1Cc2ccccc2C1 has a cytotoxic concentration of greater than 10 µM (AML cell lines; cell viability, CellTiter-Glo).
For CC(C)C[C@H](NC(=O)[C@H](C)NC(=O)[C@@H](NC(=O)[C@H](CCCNC(=N)N)NC(=O)[C@H](CC(C)C)NC(=O)[C@H](Cc1c[nH]c2ccccc12)NC(=O)[C@@H]1CCCN1C(=O)[C@@H](N)CCCCN)C(C)C)C(=O)N[C@@H](CS)C(=O)N1CCC[C@H]1C(=O)NCC(=O)O, the viability was 106% and 109% (Vero; WST-1; 64 µM, 24 h).
For CC(=O)N1CCC(C(=O)N2CCN3C(=O)c4cc(-c5ccccc5)ccc4NC(=O)C3C2)CC1 (stereo not drawn), “revertants per plate” read 112 (Salmonella typhimurium; TA100; 5.0 µg/plate, together with: rat liver S9).
C[C@H]1CN(c2n[nH]c3nc(N[C@H]4CC[C@H](NS(=O)(=O)CCC(F)(F)F)CC4)ncc23)CCO1 gave a remaining binding of 1.14 (Zinc transporter 7 (Homo sapiens, UniProt Q8NEW0); Kinobeads competition, measured: SLC30A7; 0.032 µM, unit not given; reference: vehicle).
With c1csc(-c2ccc(-c3cccs3)s2)c1 the CC50 was greater than 10 µM (PH5CH8 hepatocytes; high-content cell count; 72 h, oleate lipid loaded).
The necrotic cells of Cc1cc(C(C)(C)c2ccc(O)c(C)c2)ccc1O is reported as 46.7 ± 9.48% (HepG2 spheroids; annexin V-FITC/PI flow cytometry; 1 µM, 96 h).
For COc1cc(Nc2ncc(F)c(Nc3ccc4c(n3)NC(=O)C(C)(C)O4)n2)cc(OC)c1OC, the IC50 was greater than 10 µM (B1 bradykinin receptor (BDKRB1, Homo sapiens, UniProt P46663)).
Cc1cc(NC(=O)c2cc3c(=O)n4cccc(C)c4nc3n2C)ccc1Br has a viability of 72.5% (Vero; MTT; 6.3 µM, 24 (unit not given)).
O=c1cc(-c2ccc(O)cc2)oc2cc(O)cc(O)c12 has an IC50 of 72 µM (uninduced SH-SY5Y Aβ-GFP cells; cytotoxicity, MTT; 24 h).
With CC[C@H](C)[C@H](NC(=O)[C@H](CCCNC(=N)N)NC(=O)[C@@H](N)C(C)C)C(=O)N[C@@H](CO)C(=O)NCC(=O)N[C@@H](CCCNC(=N)N)C(=O)NCC(=O)N[C@@H](Cc1ccccc1)C(=O)N[C@@H](CS)C(=O)N[C@H](C(=O)N[C@@H](CCCCN)C(=O)N[C@@H](CCSC)C(=O)N[C@@H](Cc1ccccc1)C(=O)N[C@@H](Cc1ccc(O)cc1)C(=O)N[C@H](C(=O)N[C@@H](CCCCN)C(=O)N1CCC[C@H]1C(=O)N[C@H](C(=O)N[C@@H](CCCCN)C(=O)N[C@@H](Cc1ccc(O)cc1)C(=O)N[C@@H](CCCCN)C(=O)NCC(=O)N1CCC[C@H]1C(=O)N[C@H](C(=O)N[C@@H](CCCCN)C(=O)N[C@@H](CCCCN)C(=O)NCC(=O)N[C@@H](CCC(=O)O)C(=O)N[C@@H](CCCCN)C(=O)N[C@@H](CC(C)C)C(=O)NCC(=O)N[C@H](C(=O)N[C@@H](CC(C)C)C(=O)N[C@@H](CC(C)C)C(=O)N1CCC[C@H]1C(=O)N[C@@H](CC(C)C)C(=O)N[C@@H](CCC(N)=O)C(=O)N[C@@H](CCCCN)C(=O)N[C@H](C(=O)N[C@@H](Cc1ccc(O)cc1)C(=O)O)C(C)C)[C@@H](C)O)[C@@H](C)CC)[C@@H](C)CC)[C@@H](C)CC)C(C)C the CC50 was 45.3 µM (PMA-differentiated THP-1; cell viability, MTT; 24 h).
Under “dose-reducing adverse events”, CO[C@H]1C[C@@H]2CC[C@@H](C)[C@@](O)(O2)C(=O)C(=O)N2CCCC[C@H]2C(=O)O[C@H]([C@H](C)C[C@@H]2CC[C@@H](OC(=O)NCCOCCOCCOCCOCCOCCOCCOCCOCCC(=O)N3CCc4cc(Cn5nc(-c6ccc7oc(N)nc7c6)c6c(N)ncnc65)ccc4C3)[C@H](OC)C2)C[C@@H](O)[C@H](C)/C=C(\C)[C@@H](O)[C@@H](OC)C(=O)[C@H](C)C[C@H](C)/C=C/C=C/C=C/1C is recorded as 0% (phase 1 dose escalation, measured: mucositis; advanced solid tumour patients; intravenous, 8 mg weekly, grade ≥3).
For CC[C@H](C)[C@H](NC(=O)[C@H](Cc1ccccc1)NC(=O)[C@H](CCC(=O)O)NC(=O)[C@H](CCCNC(=N)N)NC(=O)[C@H](C)NC(=O)[C@H](C)NC(=O)[C@H](CCC(N)=O)NC(=O)[C@H](CCC(=O)O)NC(=O)[C@H](CCC(=O)O)NC(=O)[C@H](CC(C)C)NC(=O)[C@H](Cc1ccc(O)cc1)NC(=O)[C@H](CO)NC(=O)[C@H](CO)NC(=O)[C@@H](NC(=O)[C@H](CC(=O)O)NC(=O)[C@H](CO)NC(=O)[C@@H](NC(=O)[C@H](Cc1ccccc1)NC(=O)[C@@H](NC(=O)CNC(=O)[C@H](CCC(=O)O)NC(=O)[C@H](C)NC(=O)CCc1c[nH]cn1)[C@@H](C)O)[C@@H](C)O)C(C)C)C(=O)N[C@@H](C)C(=O)N[C@@H](Cc1c[nH]c2ccccc12)C(=O)N[C@@H](CC(C)C)C(=O)N[C@H](C(=O)N[C@@H](CCCNC(=N)N)C(=O)NCC(=O)N[C@@H](CCCNC(=N)N)C(=O)N[C@@H](CCCCNC(=O)COCCOCCNC(=O)COCCOCCNC(=O)CC[C@H](NC(=O)CCCCCCCCCCCCCCCCC(=O)O)C(=O)O)C(=O)NCC(=O)NCC(=O)N[C@@H](CO)C(=O)N[C@@H](CCCCNc1c(NCCCCCN(O)C(=O)CCC(=O)NCCCCCN(O)C(=O)CCC(=O)NCCCCCN(O)C(C)=O)c(=O)c1=O)C(=O)O)C(C)C [zirconium-89 labelled], the tissue uptake was 0.28 %ID/g (gamma counting; rat, stomach-duodenum; subcutaneous, 3 nmol/kg, 168 h).
For N=C(N)NCCC[C@H](NC(=O)[C@H](Cc1c[nH]c2ccccc12)NC(=O)[C@H](CCCNC(=N)N)NC(=O)[C@H](Cc1c[nH]c2ccccc12)NC(=O)[C@H](Cc1c[nH]c2ccccc12)NC(=O)[C@H](Cc1c[nH]c2ccccc12)NC(=O)[C@H](CCCNC(=N)N)NC(=O)[C@H](Cc1c[nH]c2ccccc12)NC(=O)[C@@H](N)CCCNC(=N)N)C(=O)N[C@@H](Cc1ccccc1)C(N)=O, the LC50 was greater than 512 µM (PK-15).
For CC(C)(c1ccc(O)cc1)c1ccc(O)cc1, “early apoptotic cells” read 4.51 ± 1.59% (HepG2 spheroids, dissociated; annexin V-FITC/PI flow cytometry; 1 µM, 96 h).
Under “probability of response”, O=c1ccc2ccccc2o1 is recorded as 0.39% (HepG2; measured: cell count; concentration not given, 6 h, phospholipidosis and steatosis panel).

Excerpt of the above:
For COc1cc(Nc2ncc(F)c(Nc3ccc4c(n3)NC(=O)C(C)(C)O4)n2)cc(OC)c1OC, the IC50 was greater than 10 µM (B1 bradykinin receptor (BDKRB1, Homo sapiens, UniProt P46663)).
Cc1cc(NC(=O)c2cc3c(=O)n4cccc(C)c4nc3n2C)ccc1Br has a viability of 72.5% (Vero; MTT; 6.3 µM, 24 (unit not given)).
